{"data": "Published values of several laboratories", "note": "Compare with care: the assays were run in different laboratories. Several values in a cell are separate wells, animals, samples, runs or records. ± gives the spread as reported."}
{"SMILES": "CS(=O)(=O)CCCn1c(Cn2c(=O)n(CC(F)(F)F)c3ccncc32)cc2cc(Cl)ccc21", "target or system": "respiratory syncytial virus", "assay": "RT-qPCR", "system": "hospitalized infants 1-24 months, nasal swab", "setting": "oral, 2, 1.5 or 1 mg/kg daily, day 6, low dose by age cohort", "how to read": "relative to: placebo", "quantity": "LS mean difference vs placebo", "result": "0.2 log10 copies/mL"}
{"SMILES": "C[C@H]1O[C@@H](O[C@H]2CC[C@@]3(C)[C@@H](CC[C@]4(C)[C@@H]3C=C[C@]35OC[C@@]6(CCC(C)(C)C[C@H]63)[C@@H](O)C[C@]54C)[C@]2(C)CO)[C@H](O)[C@@H](O[C@@H]2O[C@H](CO)[C@@H](O)[C@H](O)[C@H]2O)[C@H]1O", "system": "mouse, chronic-plus-binge ethanol, AAV8-TBG-Null, liver", "setting": "dose not given, high dose", "quantity": "hepatic total cholesterol", "result": "0.135 mmol/g protein and 0.124 mmol/g protein and 0.166 mmol/g protein and 0.0979 mmol/g protein and 0.085 mmol/g protein and 0.103 mmol/g protein"}
{"SMILES": "CN1CCN(S(=O)(=O)c2cc([N+](=O)[O-])ccc2N(CCOS(C)(=O)=O)CCOS(C)(=O)=O)CC1", "system": "NSG mice, sample DA PDX", "setting": "intraperitoneal, 25 mg/kg weekly x3", "quantity": "event-free survival", "result": "> 371 days"}
{"SMILES": "CC[C@H](C)[C@H](NC(=O)[C@@H](NC(=O)[C@H](CCCNC(=N)N)NC(=O)[C@H](C)NC(=O)[C@@H]1CC(=O)NCC(=O)N[C@@H]([C@@H](C)O)C(=O)N2CCC[C@H]2C(=O)NCC(=O)N[C@@H](Cc2ccccc2)C(=O)N[C@@H](CCC(N)=O)C(=O)N[C@@H]([C@@H](C)O)C(=O)N2CCC[C@H]2C(=O)N1)C(C)C)C(=O)N[C@@H](CO)C(=O)N[C@@H](CCCNC(=N)N)C(=O)N[C@@H](Cc1ccccc1)C(=O)NCC(=O)N[C@@H](Cc1ccccc1)C(=O)N[C@@H](CC(N)=O)C(=O)O", "target or system": "Pseudomonas aeruginosa RNA polymerase", "assay": "inhibitor", "quantity": "transcript elongation", "result": "inhibited"}
{"SMILES": "CC[C@H](C)[C@H](NC(=O)[C@H](C)NC(=O)[C@H](CCCCN)NC(=O)[C@H](CC(C)C)NC(=O)[C@H](C)NC(=O)[C@@H](NC(=O)[C@H](Cc1c[nH]cn1)NC(=O)[C@H](CC(C)C)NC(=O)[C@@H](NC(=O)[C@@H](NC(=O)[C@H](CCCCN)NC(=O)[C@H](C)NC(=O)[C@H](C)NC(=O)[C@H](CO)NC(=O)[C@H](CCCCN)NC(=O)[C@H](Cc1ccccc1)NC(=O)[C@@H](NC(=O)[C@H](CCCCN)NC(=O)[C@H](CC(C)C)NC(=O)[C@H](Cc1ccccc1)NC(=O)[C@H](CO)NC(=O)[C@H](CCCCN)NC(=O)[C@H](Cc1c[nH]c2ccccc12)NC(=O)[C@H](CCCCN)NC(C)=O)[C@@H](C)O)[C@@H](C)O)C(C)C)[C@@H](C)O)C(=O)N[C@@H](CO)C(=O)N[C@@H](CO)C(N)=O", "target or system": "Enterococcus faecalis", "system": "ATCC 29212", "quantity": "MBC50", "result": "32 µg/mL"}
{"SMILES": "COc1c(CCC[P+](c2ccccc2)(c2ccccc2)c2ccccc2)cc2c(c1OC)OCO2.[I-]", "target or system": "RXF 393", "assay": "SRB", "quantity": "GI50", "result": "-5.69 log M"}
{"SMILES": "CC[C@H](C)[C@@H]1NC(=O)[C@@H]2CCCN2C(=O)[C@H](CC(C)C)NC(=O)[C@H](CC(C)C)NC(=O)CNC(=O)[C@@H](NC(=O)[C@@H](NC(=O)[C@H](CC(=O)O)NC(=O)CNC(=O)[C@@H](NC(=O)[C@H](C)NC(=O)CNC(=O)[C@H](CCCCN)NC(=O)[C@H](CC(C)C)NC(=O)[C@H](CC(C)C)NC(=O)[C@H](CCCCN)NC(=O)CNC(=O)[C@@H](NC(=O)[C@@H](N)CC(C)C)C(C)C)C(C)C)C(C)C)CSSC[C@@H](C(=O)O)NC1=O", "assay": "RNA-seq, item: Acap1", "system": "mouse, traumatic brain injury model, frontal cortex and hippocampus", "setting": "dose not given", "how to read": "relative to: TBI alone", "quantity": "log2 fold change", "result": -4.17}
{"SMILES": "Clc1ccc(N/N=C(\\c2ccccc2)c2ccccn2)nc1", "system": "NOD/SCID mice, HER2+ LC tumour-derived cells", "setting": "dose not given", "quantity": "median survival", "result": "47 to 51 days"}
{"SMILES": "O=C(O)/C=C/C(=O)O.Oc1cccc2[nH]cc(CCNC3CCCCC3)c12", "system": "C57BL/6J mice", "setting": "subcutaneous, 3 mg/kg", "quantity": "head twitch count", "result": "5.5 ± 0.6"}
{"SMILES": "CCCCCCCCCCCCCCCC[N+](C)(C)CCCCCCCCCC[N+](C)(C)CCCCCCCCCCCCCCCC.[Br-].[Br-]", "target or system": "influenza A virus A/PR/8/34 (H1N1)", "setting": "concentration not given, post-treatment", "quantity": "protection", "result": "66.4 ± 9.3%"}
{"SMILES": "CCCNCCc1c[nH]c2cccc(O)c12.CCCNCCc1c[nH]c2cccc(O)c12.O=C(O)/C=C/C(=O)O", "system": "C57BL/6J mice", "setting": "subcutaneous, 0.3 mg/kg, 30 min", "quantity": "distance travelled", "result": "2470 ± 180 cm"}
{"SMILES": "CCCCCCCCCCCCCCCCCC[N+](C)(C)CCCCCCCCCCCC[N+](C)(C)CCCCCCCCCCCCCCCCCC.[Br-].[Br-]", "target or system": "influenza A virus A/PR/8/34 (H1N1)", "setting": "concentration not given, pre-treatment", "quantity": "protection", "result": "60.5 ± 4.3%"}
{"SMILES": "C=CCNCCc1c[nH]c2cccc(O)c12.C=CCNCCc1c[nH]c2cccc(O)c12.O=C(O)/C=C/C(=O)O", "system": "C57BL/6J mice", "setting": "subcutaneous, 0.3 mg/kg, 30 min", "quantity": "distance travelled", "result": "2450 ± 139 cm"}
{"SMILES": "CCCCCCCCCCCC[N+](C)(C)CCCNCCC[N+](C)(C)CCCCCCCCCCCC.[Br-].[Br-]", "target or system": "influenza A virus A/PR/8/34 (H1N1)", "setting": "concentration not given, post-treatment", "quantity": "protection", "result": "71.2 ± 12.4%"}
{"SMILES": "CC(C)NCCc1c[nH]c2cccc(O)c12.O=C(O)/C=C/C(=O)O", "system": "C57BL/6J mice", "setting": "subcutaneous, 0.1 mg/kg, 30 min", "quantity": "distance travelled", "result": "1980 ± 251 cm"}
{"SMILES": "CCOP(=S)(OCC)Oc1ccc(Cl)cc1Cl", "target or system": "nanobody A4", "assay": "ic-ELISA", "setting": "concentration not given", "how to read": "relative to: coumaphos IC50 over compound IC50, molar basis", "quantity": "cross-reactivity", "result": "< 1%"}
{"SMILES": "CCCCNCCc1c[nH]c2cccc(O)c12.O=C(O)/C=C/C(=O)O", "system": "C57BL/6J mice", "setting": "subcutaneous, 0.3 mg/kg, 30 min", "quantity": "distance travelled", "result": "2510 ± 249 cm"}
{"SMILES": "CCCCCCCCCCCC[N+](C)(C)CCCCCC[N+](C)(C)CCCCCCCCCCCC.[Br-].[Br-]", "target or system": "influenza A virus A/PR/8/34 (H1N1)", "setting": "concentration not given, pre-treatment", "quantity": "protection", "result": "66.1 ± 5.9%"}
{"SMILES": "O=C1c2c(O)c(=O)ccn2N([C@@H]2c3ccccc3SCc3c2ccc(F)c3F)[C@@H]2COCCN12", "target or system": "influenza A virus H1N1", "system": "A/WSN/33, BALB/c mice, lung", "setting": "subcutaneous, 0.0625 mg/kg every 6 h, 24 h", "quantity": "lung virus titre", "result": "4.23 log10 TCID50/mL and 3.67 log10 TCID50/mL and 4 log10 TCID50/mL"}
{"SMILES": "CCNCCc1c[nH]c2cccc(O)c12.CCNCCc1c[nH]c2cccc(O)c12.O=C(O)CCC(=O)O", "system": "C57BL/6J mice", "setting": "subcutaneous, 0.3 mg/kg", "quantity": "head twitch response", "result": "7.8 ± 0.8 count/30 min"}
{"note": "Repeated from above:"}
{"SMILES": "C[C@H]1O[C@@H](O[C@H]2CC[C@@]3(C)[C@@H](CC[C@]4(C)[C@@H]3C=C[C@]35OC[C@@]6(CCC(C)(C)C[C@H]63)[C@@H](O)C[C@]54C)[C@]2(C)CO)[C@H](O)[C@@H](O[C@@H]2O[C@H](CO)[C@@H](O)[C@H](O)[C@H]2O)[C@H]1O", "system": "mouse, chronic-plus-binge ethanol, AAV8-TBG-Null, liver", "setting": "dose not given, high dose", "quantity": "hepatic total cholesterol", "result": "0.135 mmol/g protein and 0.124 mmol/g protein and 0.166 mmol/g protein and 0.0979 mmol/g protein and 0.085 mmol/g protein and 0.103 mmol/g protein"}
{"SMILES": "CN1CCN(S(=O)(=O)c2cc([N+](=O)[O-])ccc2N(CCOS(C)(=O)=O)CCOS(C)(=O)=O)CC1", "system": "NSG mice, sample DA PDX", "setting": "intraperitoneal, 25 mg/kg weekly x3", "quantity": "event-free survival", "result": "> 371 days"}
{"SMILES": "CC[C@H](C)[C@H](NC(=O)[C@@H](NC(=O)[C@H](CCCNC(=N)N)NC(=O)[C@H](C)NC(=O)[C@@H]1CC(=O)NCC(=O)N[C@@H]([C@@H](C)O)C(=O)N2CCC[C@H]2C(=O)NCC(=O)N[C@@H](Cc2ccccc2)C(=O)N[C@@H](CCC(N)=O)C(=O)N[C@@H]([C@@H](C)O)C(=O)N2CCC[C@H]2C(=O)N1)C(C)C)C(=O)N[C@@H](CO)C(=O)N[C@@H](CCCNC(=N)N)C(=O)N[C@@H](Cc1ccccc1)C(=O)NCC(=O)N[C@@H](Cc1ccccc1)C(=O)N[C@@H](CC(N)=O)C(=O)O", "target or system": "Pseudomonas aeruginosa RNA polymerase", "assay": "inhibitor", "quantity": "transcript elongation", "result": "inhibited"}
